Results from different studies.
Each numbered part is a random draw from the data of one study; scales do not carry over between parts.
UniProt P12389, sequence (whole entry, looked up): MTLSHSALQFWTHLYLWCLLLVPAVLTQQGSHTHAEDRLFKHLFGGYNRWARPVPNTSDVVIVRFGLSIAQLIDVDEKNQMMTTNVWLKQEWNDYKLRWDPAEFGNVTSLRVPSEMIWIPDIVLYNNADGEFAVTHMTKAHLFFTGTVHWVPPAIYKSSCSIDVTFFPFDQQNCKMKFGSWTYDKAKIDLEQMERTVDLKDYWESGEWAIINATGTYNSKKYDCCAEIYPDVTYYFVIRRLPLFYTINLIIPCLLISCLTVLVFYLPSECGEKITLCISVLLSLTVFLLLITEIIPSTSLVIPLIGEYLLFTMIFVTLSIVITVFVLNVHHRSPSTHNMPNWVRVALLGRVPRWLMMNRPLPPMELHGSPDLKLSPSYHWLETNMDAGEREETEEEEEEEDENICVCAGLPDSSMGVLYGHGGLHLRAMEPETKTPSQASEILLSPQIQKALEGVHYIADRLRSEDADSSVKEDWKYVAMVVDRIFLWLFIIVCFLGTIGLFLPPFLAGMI
UniProt P12390, sequence (whole entry, looked up): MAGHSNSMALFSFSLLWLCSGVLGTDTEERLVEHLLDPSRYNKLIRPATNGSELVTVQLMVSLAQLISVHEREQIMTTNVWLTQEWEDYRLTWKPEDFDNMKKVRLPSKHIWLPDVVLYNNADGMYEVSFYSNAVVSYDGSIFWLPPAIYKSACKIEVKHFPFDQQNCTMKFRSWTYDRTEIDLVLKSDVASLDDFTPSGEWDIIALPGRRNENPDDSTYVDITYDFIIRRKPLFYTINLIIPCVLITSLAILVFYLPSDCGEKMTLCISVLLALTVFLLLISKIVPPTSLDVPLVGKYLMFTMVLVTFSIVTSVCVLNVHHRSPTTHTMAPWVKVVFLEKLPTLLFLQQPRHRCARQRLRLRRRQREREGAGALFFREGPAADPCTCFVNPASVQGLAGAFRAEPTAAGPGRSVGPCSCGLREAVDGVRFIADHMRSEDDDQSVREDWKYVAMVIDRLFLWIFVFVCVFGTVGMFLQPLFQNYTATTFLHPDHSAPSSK

Series 1
Target: Neuronal acetylcholine receptor; alpha9/alpha10 (Homo sapiens, UniProt Q9GZZ6+Q9UGM1)
UniProt Q9GZZ6, sequence (whole entry, looked up): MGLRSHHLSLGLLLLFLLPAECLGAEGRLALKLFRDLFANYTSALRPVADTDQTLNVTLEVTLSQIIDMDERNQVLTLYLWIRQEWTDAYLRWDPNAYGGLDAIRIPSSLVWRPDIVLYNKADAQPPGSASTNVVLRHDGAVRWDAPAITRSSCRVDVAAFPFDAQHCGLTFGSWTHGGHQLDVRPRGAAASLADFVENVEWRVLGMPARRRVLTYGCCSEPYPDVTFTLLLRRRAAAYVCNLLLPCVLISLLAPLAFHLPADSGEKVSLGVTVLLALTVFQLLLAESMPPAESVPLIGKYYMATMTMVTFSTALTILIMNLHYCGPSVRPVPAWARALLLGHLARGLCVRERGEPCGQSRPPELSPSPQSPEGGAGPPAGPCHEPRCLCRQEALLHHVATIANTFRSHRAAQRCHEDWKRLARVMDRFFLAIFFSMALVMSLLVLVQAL
UniProt Q9UGM1, sequence (whole entry, looked up): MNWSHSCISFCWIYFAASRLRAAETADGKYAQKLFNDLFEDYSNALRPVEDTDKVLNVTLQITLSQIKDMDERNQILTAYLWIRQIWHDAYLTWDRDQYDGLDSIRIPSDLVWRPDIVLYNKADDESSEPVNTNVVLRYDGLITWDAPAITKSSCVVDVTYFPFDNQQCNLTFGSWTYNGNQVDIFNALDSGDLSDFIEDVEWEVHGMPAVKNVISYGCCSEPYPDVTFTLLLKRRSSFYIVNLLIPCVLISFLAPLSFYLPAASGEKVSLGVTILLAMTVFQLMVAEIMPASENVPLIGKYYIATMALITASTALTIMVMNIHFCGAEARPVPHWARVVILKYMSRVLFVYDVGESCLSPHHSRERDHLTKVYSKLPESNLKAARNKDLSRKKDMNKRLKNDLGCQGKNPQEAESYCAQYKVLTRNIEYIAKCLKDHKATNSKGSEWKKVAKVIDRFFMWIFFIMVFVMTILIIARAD
`N=C(N)NCCCC[C@@H]1NC(=O)[C@H](Cc2ccc(O)cc2)NC(=O)[C@H](CCCNC(=N)N)NC(=O)[C@@H]2CSSC[C@H](NC(=O)CN)C(=O)N[C@@H](CSSC[C@@H](C(=O)N[C@@H](CCCNC(=N)N)C(=O)O)NC1=O)C(=O)N[C@@H](CO)C(=O)N[C@@H](CC(=O)O)C(=O)N1CCC[C@H]1C(=O)N[C@@H](CCCNC(=N)N)C(=O)N2` gave an IC50 of 40.3 nM.
`N=C(N)NCCC[C@H](NC(=O)[C@@H]1CSSC[C@@H]2NC(=O)[C@@H](NC(=O)CN)CSSC[C@H](NC(=O)[C@H](CCCNC(=N)N)NC(=O)[C@@H]3CCCN3C(=O)[C@H](CC(=O)O)NC(=O)[C@H](CO)NC2=O)C(=O)N[C@@H](CCCNC(N)=O)C(=O)N[C@@H](Cc2ccc(O)cc2)C(=O)N[C@@H](CCCNC(=N)N)C(=O)N1)C(=O)O` has an IC50 of 182 nM.
With `N=C(N)NCCC[C@H](NC(=O)[C@@H]1CSSC[C@@H]2NC(=O)[C@@H](NC(=O)CN)CSSC[C@H](NC(=O)[C@H](CCCNC(=N)N)NC(=O)[C@@H]3CCCN3C(=O)[C@H](CC(=O)O)NC(=O)[C@H](CO)NC2=O)C(=O)N[C@@H](CCCNC(=N)N)C(=O)N[C@@H](Cc2ccc(O)cc2)C(=O)N[C@@H](CCNC(=N)N)C(=O)N1)C(=O)O` the IC50 was 213 nM.

Further values, each from its own experiment
With `CC[C@H](C)[C@@H]1NC(=O)[C@H](CCC(=O)O)NC(=O)[C@@H]2CCCN2C(=O)[C@H](Cc2cnc[nH]2)NC(=O)[C@H](CC(=O)O)NC(=O)[C@H](C(C)C)NC(=O)[C@H](CC(N)=O)NC(=O)[C@@H]2CSSC[C@H](NC(=O)CN)C(=O)N[C@@H](CSSC[C@@H](C(N)=O)NC1=O)C(=O)N[C@@H](CO)C(=O)N[C@@H](Cc1cnc[nH]1)C(=O)N1CCC[C@H]1C(=O)N[C@@H](C)C(=O)N2` the IC50 was over 10000 nM (Neuronal acetylcholine receptor; alpha9/alpha10 (Homo sapiens, UniProt Q9GZZ6+Q9UGM1); cell-based).
With `CC(=O)N[C@@H](CC(=O)O)C(=O)N[C@@H](CCC(=O)O)C(=O)N[C@@H](Cc1ccc(OP(=O)(O)O)cc1)C(=O)N[C@@H](CC(=O)O)C(=O)N[C@@H](CC(=O)O)C(=O)N1CCC[C@H]1C(=O)N[C@@H](Cc1ccccc1)C(N)=O` the ITC stoichiometry was 0.87 (Secreted effector protein, N-terminal domain (Yersinia pestis, UniProt O68720); binding, ITC).
`CC[C@H](C)[C@@H]1NC(=O)[C@@H]2CCCN2C(=O)[C@H](CO)NC(=O)[C@H](CCSC)NC(=O)[C@H](C)NC(=O)[C@H](C)NC(=O)[C@@H]2CSSC[C@H](NC(=O)CN)C(=O)N[C@@H](CSSC[C@@H](C(N)=O)NC1=O)C(=O)N[C@@H](CO)C(=O)N[C@@H](Cc1cnc[nH]1)C(=O)N1CCC[C@H]1C(=O)N[C@@H](C(C)C)C(=O)N2` gave an IC50 of over 10000 nM (Neuronal acetylcholine receptor; alpha2/beta2 (Rattus norvegicus, UniProt P12389+P12390); antagonist).

For quick reference, copied from above (further values, each from its own experiment):
With `CC(=O)N[C@@H](CC(=O)O)C(=O)N[C@@H](CCC(=O)O)C(=O)N[C@@H](Cc1ccc(OP(=O)(O)O)cc1)C(=O)N[C@@H](CC(=O)O)C(=O)N[C@@H](CC(=O)O)C(=O)N1CCC[C@H]1C(=O)N[C@@H](Cc1ccccc1)C(N)=O` the ITC stoichiometry was 0.87 (Secreted effector protein, N-terminal domain (Yersinia pestis, UniProt O68720); binding, ITC).
